Measured values gathered from unrelated publications.
Compare with care: the assays were run in different laboratories.
Target: Protein kinase C theta type (PRKCQ, Homo sapiens, UniProt Q04759)

CNC(=O)C1CCN(c2cc(C)c(F)cc2NC(=O)c2ccc(-c3cc(O)ccc3C)c(C)c2)CC1
remaining binding (binding, competition with immobilised ligand; 1 µM): 85%

O=C(Cc1ccc(OCc2ccccc2)cc1)NC1(C(=O)O)CCN(C(=O)c2ccc(-c3cccc(Cl)c3)cc2)CC1
activity vs control (enzyme activity, inhibitor; 10 µM): 128%

NC(=O)[C@@H](O)C[C@H]1CCc2sc3ncnc(O[C@H]4CC[C@H](N5CCOCC5)CC4)c3c21
inhibition (enzyme activity, inhibitor; 10 µM): 14%

COc1c(OCCCN2CCOCC2)ccc2c1N=C(NC(=O)c1cnc(N)nc1)N1CCN=C21
remaining activity (kinase activity, inhibitor; 1 µM; reference: untreated control): 92%

CCN1CCN(Cc2ccc(NC(=O)c3ccc(C)c(NC(=O)c4cncc(-c5cccs5)c4)c3)cc2C(F)(F)F)CC1
remaining binding (binding, competition with immobilised ligand; 1 µM): 30%

O=c1c(-c2ccc(Cl)c(CN3CCOCC3)c2)coc2cc(O)ccc12
remaining activity (enzyme activity, inhibitor; 1 µM): 102%

Cc1cccc(O[C@H]2CCC[C@@H](C(C)CNCc3ccncc3)C2)c1 (relative stereo)
inhibition (enzyme activity; 10 µM): -7%

CCn1cc(C(=O)O)c(=O)c2c(N)c(F)c(NC3CCCCC3)cc21
inhibition (kinase activity; 0.1 µM, added: ATP at Km): -4.7%

C=CC(=O)N1CCCC(n2c(=O)c3ncccc3n(Cc3ccc(Oc4ccccc4)cc3)c2=O)C1 (stereo not drawn)
remaining binding (cell-free assay, competition with immobilised ligand; 1 µM): 98%

CNC1C[S+]2CC[S+]3CC[S+](C1)[Ru-4]321([N]=C=S)[n]2c3ccc(OC)cc3c3c4c(c5cc(F)c[n+]1c5c32)C(=O)NC4=O (stereo not drawn)
remaining binding (KinomeScan; 0.1 µM; reference: untreated): 77%

COc1cc(Nc2nccc(-c3cnn4nc(OC)ccc34)n2)cc(C(F)(F)F)c1
remaining binding (binding, competition with immobilised ligand; 1 µM): 100%

O=C(O)CCC(=O)c1cccc(NS(=O)(=O)c2c[nH]c3ncccc23)c1
remaining activity (kinase activity, radiometric; 10 µM): 109%

Nc1ncc2c(n1)-c1c([nH]c3ccc(C4=CCOCC4)cc13)CCC2
remaining binding (binding, competition with immobilised ligand; 1 µM): 92%

COc1c(Cl)cccc1Nc1c(-c2ccncc2C#C[C@@]2(C)CCCN2C(=O)/C=C/CN(C)C)[nH]c2c1C(=O)NCC2
remaining binding (cell-free assay, competition with immobilised ligand; 3 µM): 80%

C=CC(=O)Nc1cccc(-c2cnc3[nH]cc(C(=O)NC(C)(C)C)c3n2)c1
inhibition (enzyme activity, inhibitor; 0.1 µM): 13%

Excerpt of the above:
Cc1cccc(O[C@H]2CCC[C@@H](C(C)CNCc3ccncc3)C2)c1 (relative stereo)
inhibition (enzyme activity; 10 µM): -7%
